Measurements pooled from the literature.
A part holds a random share of what one study measured. Substitutions count along the parent as printed.

Block 1 — method: RNA Bind-n-Seq; form: RNA; medium: in vitro; tested at: 365 nM; reference: no-protein control; reading: higher = stronger binding
Target: RNA binding protein fox-1 homolog 2, RRM domain, GST-SBP tag (RBFOX2, Homo sapiens, UniProt O43251-10, residues 100-194)
Notes: natural RNA segment, single round, ends assumed
Target sequence (chain): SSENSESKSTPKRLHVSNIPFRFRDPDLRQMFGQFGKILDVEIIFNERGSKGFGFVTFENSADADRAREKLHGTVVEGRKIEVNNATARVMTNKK
| Strand | RBNS enrichment (R) |
| --- | --- |
| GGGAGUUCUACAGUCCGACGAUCGAAGAGUUUACUUGGAUUGCAGUAGCCCAUUGGUUGUUCAUAUAUUUAAAUAAAAUGGUCUACAAACUAUUUUUCAAACAAUAAGGACUAUCUUGGGAUAUCUGAGCUGCUGGAAUUCUCGGGUGCCAA | 0.337 |
| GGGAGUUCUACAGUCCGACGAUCGGUAGGAGAAGGAGACGAAGAUGCUUUAGGAAGAUAAAAACCUUACAAAGAAUGUAUACUCAUCUUUUUUGGCCCAUUACAAUACUGCUUUCUCAGGUUCUUAACAGCCUUGGAAUUCUCGGGUGCCAA | 0.388 |
| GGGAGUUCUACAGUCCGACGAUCAACAGCUGUUUUUUCUACAUUAGAAAUAAGAUGCCACACAAGGAACUACAUUCCAGAUUUAAAGAAAUGAAAGGAUACCAUUAGUGUGUAUAACAGAUUAUUGUUCAUACUGGAAUUCUCGGGUGCCAA | 0.316 |
| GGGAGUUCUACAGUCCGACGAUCAAUUUCUAAUCUCAUGAGGUCUGUGGUGCUGCAGAAUUUAUACUGCAAUGUGGACUGUUUAGAAUUCUAACCAUUUAUGAUAUUCUGGCUGUCCAGGUGAGUGGAAAUUUUGGAAUUCUCGGGUGCCAA | 0.54 |
| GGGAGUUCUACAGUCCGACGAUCGCCCUUCUGCUCCAGCUUGCUGGAUGUUACCUGUCCUCUUCCCUCCACAAGUCUUGGCCCUUAACCUUUAUCUUUCUUCCUGUCCUCUCACCUAGAUUGUAAGCUCCCUGUGGAAUUCUCGGGUGCCAA | 0.819 |
| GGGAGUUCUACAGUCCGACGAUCCAGGACCCUGAUCAUUCACUGUGACACCCCAGCCCUCCAAGGGUACCCCGGGAGACCACGUGACUCUCUCUCUCUCUCUGUCUCUCUCUCUCUCUGUCUCUCUCUCUCUCUGGAAUUCUCGGGUGCCAA | 0.884 |
| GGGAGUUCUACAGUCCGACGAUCUGGCCAUGGUACCCCCUUCUGGGCAUCUGUUCUGGUUUUUAACCAUUGUCUUGUUCUGUGAUGAGGGGAGGGGGGCACAUGCUGAGUCUCCCAAGGCUGCGUCUGGAGGGUGGAAUUCUCGGGUGCCAA | 1.7 |
| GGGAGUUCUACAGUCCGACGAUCGAGGGAGUCAUGUGUGUUUGAAGGGAGAAGUCCAUUGAGUCUCUAAUUGACUUUUCUUUCAGCUCCAGUGUGAACUAUAAAACCAUAAUCACUCAGUUCUUGGAAAAGUCUGGAAUUCUCGGGUGCCAA | 0.311 |

Block 2 — method: protein-binding microarray; form: double-stranded DNA, one strand shown; medium: in vitro; tested at: 250 nM; notes: 60-bp whole probe; with: salmon DNA 0.4 mg/ml; reference: random background probes; reading: higher = stronger binding; shared flanks, not repeated: GCCTAGCAC … GTCTTGATTCGCTTGACGCTGCTG
Target: Interferon regulatory factor 7, full length, phosphomimetic (IRF7, Homo sapiens, UniProt Q92985, residues 1-503, S101K/S471D/S472D/S475D/S476D/S477D/S483D/S484D/S487D)
Target sequence (chain): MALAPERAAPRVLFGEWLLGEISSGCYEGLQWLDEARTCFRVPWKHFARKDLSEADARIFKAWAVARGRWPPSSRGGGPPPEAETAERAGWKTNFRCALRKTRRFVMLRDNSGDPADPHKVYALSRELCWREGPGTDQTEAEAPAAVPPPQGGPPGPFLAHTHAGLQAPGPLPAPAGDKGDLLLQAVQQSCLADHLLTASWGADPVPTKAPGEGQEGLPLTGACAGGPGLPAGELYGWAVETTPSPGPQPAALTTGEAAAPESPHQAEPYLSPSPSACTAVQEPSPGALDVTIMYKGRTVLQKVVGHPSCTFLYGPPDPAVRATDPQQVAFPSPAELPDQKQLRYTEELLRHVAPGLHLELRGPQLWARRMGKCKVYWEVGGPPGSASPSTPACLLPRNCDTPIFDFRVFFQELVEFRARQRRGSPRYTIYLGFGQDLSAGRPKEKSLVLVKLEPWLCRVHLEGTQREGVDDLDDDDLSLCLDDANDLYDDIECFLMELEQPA
| Strand | log fluorescence |
| --- | --- |
| TTCTCAACCAGTTTTCTTTTCGTGCTA | 1.67 z-score |
| GACTGACTGGGGTTTCGGGACGTGCTA | 1.12 z-score |
| TTAGGTTTCGGACTGGGTCAGTGCTAG | 3.65 z-score |
| GACGGTAGCGACTATCGGGACGTGCTA | -0.936 z-score |
| TACGATATCGGGTATCGAGACGTGCTA | 0.347 z-score |
| AGGAATTTCCCACTTTCAGTGTGCTAG | 2.25 z-score |
| GACGATATCAGGATCGAGACGTGCTAG | 0.0398 z-score |
| GACGATTTCGGCTTTCGAGACGTGCTA | 0.913 z-score |
| GATGGACTGGGACTGGGGACGTGCTAG | -0.361 z-score |
| GACGGCTTCCTTTTCCTGACGTGCTAG | -0.0286 z-score |
| TTAGATTTCACTATCGATTAGTGCTAG | 1.04 z-score |
| TTAGGTCTCCATTTCCTTTAGTGCTAG | 2.19 z-score |
| TTAGAACTGAGAATCGATTAGTGCTAG | 0.133 z-score |
| TTAGGTTTCCTTTTACTTTAGTGCTAG | 8.21 z-score |
| TGGGTTGTAGGTTTTCTGAAGGTGCTA | -0.404 z-score |
| TTAGGTTTTGGGTTTCGGTTAGTGCTA | 7.24 z-score |
| TTAGAACTGAGCTTCGATTAGTGCTAG | -0.0919 z-score |
| TCACTTCACCTCTCTGTCACTGTGCTA | 0.477 z-score |
| TTAGGAATGGGACTGGGTTAGTGCTAG | 0.00137 z-score |

Block 3 — target: CCNB1, cyclin fold, Cln2 fusion (human); method: yeast growth competition, sequencing; medium: yeast; notes: weak parent motif; reference: not given; reading: higher = stronger binding
Parent: ORC1 docking peptide (human); PRARKRLELGNLG
| Change | normalised enrichment score |
| --- | --- |
| L12F | 0.725 |
| R6H | 0.614 |
| A3H | 0.702 |
| R2M | 0.288 |
| G13V | 0.221 |
| L7F | -0.26 |
| A3V | 0.78 |
| N11I | 0.0777 |
| L12K | 0.678 |
| R2K | 0.255 |
| L7T | 0.265 |
| G10A | 0.253 |
| P1G | -0.727 |
| L7R | 1.17 |

Block 4 — method: DHFR PCA, deep sequencing; medium: yeast; with: (+)-ABA 4.8 µM; reference: wild-type fitted maximum; reading: higher = stronger binding
Target: ABI1, truncated, D143A, DHFR fusion (Arabidopsis thaliana)
Notes: methotrexate growth selection, single substitutions
Parent: PYL1, truncated, DHFR fusion (Arabidopsis thaliana); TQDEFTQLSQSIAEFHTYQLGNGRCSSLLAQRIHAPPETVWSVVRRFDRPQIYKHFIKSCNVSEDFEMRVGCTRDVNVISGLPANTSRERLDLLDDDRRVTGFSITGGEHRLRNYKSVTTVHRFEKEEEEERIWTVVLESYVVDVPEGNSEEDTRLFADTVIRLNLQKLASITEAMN
| Change | relative binding score [%] |
| --- | --- |
| E38W | 35.7 |
| R123A | 80.1 |
| V44M | 17.6 |
| S27F | 11 |
| R74K | -13.4 |
| L82R | 0.553 |
| I162T | -4.69 |
| V100Q | -2.73 |
| E151N | 47.9 |
| A170D | 4.68 |
| H110C | 2.35 |
| G21M | 67.8 |
| G148M | 19.1 |
| V145D | -14.2 |
| T154I | 24.1 |
| R88Q | 75.6 |
| T73D | -0.174 |
| E4W | 66.4 |

Block 5 — target: HLF, bZIP domain (human); method: DHFR protein complementation; medium: yeast; reference: wild-type JUN-FOS pair; reading: higher = stronger binding
Notes: single substitutions, most at no-binding floor
Parent: JUN, bZIP domain (human); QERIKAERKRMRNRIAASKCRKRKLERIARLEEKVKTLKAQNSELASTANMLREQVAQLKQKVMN; partner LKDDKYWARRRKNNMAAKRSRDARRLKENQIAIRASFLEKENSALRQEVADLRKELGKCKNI
| Change | binding fitness [natural log] |
| --- | --- |
| A57M | -1.5 |
| E32S | -1.42 |
| A40W | -1.44 |
| L52E | -1.56 |
| A40G | -1.47 |
| R30H | -1.38 |
| K39W | -1.43 |
| K34V | -1.49 |
| Q41M | -1.43 |
| R53V | -1.27 |
| A46P | -1.57 |
| R30W | -1.37 |
| A46I | -1.32 |

Block 6 — method: protein binding microarray; form: double-stranded DNA, one strand shown; medium: in vitro; tested at: not given; reference: not given; reading: higher = stronger binding
Target: Histone acetyltransferase KAT6A, winged helix 1, GST fusion (KAT6A, Homo sapiens, UniProt Q92794, residues 1-85)
Notes: 8-mer, flanks averaged, mean of 2 arrays, mostly near background
Target sequence (chain): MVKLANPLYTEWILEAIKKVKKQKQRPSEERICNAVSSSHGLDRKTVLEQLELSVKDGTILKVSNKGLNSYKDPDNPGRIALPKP
| Strand | E-score |
| --- | --- |
| TGACCGAA | 0.0588 |
| GCTGCGTA | 0.118 |
| AACTAGGG | -0.0813 |
| CAGAAGGA | -0.13 |
| AAATTTCT | -0.157 |
| ACCAATTA | -0.166 |
| ACGGAAAC | 0.348 |
| ATTACACA | -0.00895 |
| CAAAGTGA | -0.156 |
| ATGCATAC | -0.0686 |
| ACGAGCGT | 0.0704 |
| ATATTGGC | -0.128 |
| GGTTGGTA | 0.117 |
| CGTACAGC | 0.158 |
| GAAAGGCA | 0.0476 |
| CCTCCGCA | 0.0201 |
| ACAAGCCT | -0.15 |
| GAAGGGAC | -0.0587 |
| AGGCCCGC | 0.349 |
| ATAGGAAG | -0.036 |
| CTTCGTAA | -0.0986 |
| CGCCGAGC | 0.333 |
| CACTGCCC | -0.0394 |
| ATACTCTA | -0.000585 |
| CTTCCAGA | -0.212 |

Excerpt of the above (block 4):
| Change | relative binding score [%] |
| --- | --- |
| G21M | 67.8 |
| E151N | 47.9 |
| V44M | 17.6 |
| G148M | 19.1 |
| R74K | -13.4 |
| R88Q | 75.6 |
| T73D | -0.174 |
| S27F | 11 |
| E4W | 66.4 |
| H110C | 2.35 |
